Earlier results as cited in several papers.
Lines come from different studies, so protocols differ.
CYP3A4: Cytochrome P450 3A4 (CYP3A4, Homo sapiens, UniProt P08684)
Sequence of UniProt P08684 (whole entry, unmodified, looked up): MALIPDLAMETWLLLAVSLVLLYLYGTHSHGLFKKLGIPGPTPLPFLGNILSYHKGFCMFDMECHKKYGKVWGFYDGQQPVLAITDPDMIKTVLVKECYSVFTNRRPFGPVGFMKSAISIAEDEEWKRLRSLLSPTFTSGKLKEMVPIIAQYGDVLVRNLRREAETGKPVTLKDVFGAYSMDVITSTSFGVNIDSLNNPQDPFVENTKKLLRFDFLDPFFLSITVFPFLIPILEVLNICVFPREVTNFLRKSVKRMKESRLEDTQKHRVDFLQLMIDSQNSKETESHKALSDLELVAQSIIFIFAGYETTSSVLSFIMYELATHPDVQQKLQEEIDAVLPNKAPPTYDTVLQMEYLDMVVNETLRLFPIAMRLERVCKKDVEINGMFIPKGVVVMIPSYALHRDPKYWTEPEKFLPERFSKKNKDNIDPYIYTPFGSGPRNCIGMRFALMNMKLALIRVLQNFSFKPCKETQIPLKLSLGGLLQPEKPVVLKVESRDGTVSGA
Sequence of UniProt Q9UNQ0 (whole entry, looked up): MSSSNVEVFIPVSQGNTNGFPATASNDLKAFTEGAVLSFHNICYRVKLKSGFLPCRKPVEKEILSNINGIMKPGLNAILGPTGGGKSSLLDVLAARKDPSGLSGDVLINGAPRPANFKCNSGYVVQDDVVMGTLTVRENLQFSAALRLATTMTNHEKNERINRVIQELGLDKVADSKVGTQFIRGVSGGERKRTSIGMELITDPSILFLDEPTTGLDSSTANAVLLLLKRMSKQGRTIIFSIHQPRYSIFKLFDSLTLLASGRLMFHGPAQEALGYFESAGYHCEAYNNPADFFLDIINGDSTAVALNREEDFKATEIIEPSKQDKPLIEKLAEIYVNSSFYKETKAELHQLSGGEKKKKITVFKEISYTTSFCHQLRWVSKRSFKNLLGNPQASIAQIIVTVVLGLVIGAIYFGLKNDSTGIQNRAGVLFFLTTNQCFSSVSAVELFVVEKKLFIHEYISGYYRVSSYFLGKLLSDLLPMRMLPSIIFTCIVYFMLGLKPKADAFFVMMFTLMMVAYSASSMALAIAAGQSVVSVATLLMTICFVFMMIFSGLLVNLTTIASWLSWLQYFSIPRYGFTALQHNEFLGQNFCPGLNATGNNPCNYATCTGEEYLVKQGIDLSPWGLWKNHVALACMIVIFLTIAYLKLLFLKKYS

With `COc1cc2c(cc1OC)CN(CCc1ccc(NC(=O)c3cc(OC)c(OC)cc3NC(=O)c3cnc4ccccc4c3)cc1)CC2` the EC50 was 33 nM (P-glycoprotein; rhodamine efflux, inhibitor; CD56-positive lymphocytes; with: rhodamine 123).
The IC50 of `O=C(Nc1nc2cccc(-c3ccc(CN4CCS(=O)(=O)CC4)cc3)n2n1)C1CC1` is reported as greater than 285000 nM (OATP1B3; inhibitor).
`CO/N=C(\C(=O)N[C@@H]1C(=O)N2C(C(=O)O)=C(CSc3nc(C)c(CC(=O)O)s3)CS[C@H]12)c1csc(N)n1`: “brain ISF-to-plasma unbound ratio” no more than 25 fold (MRPs and organic anion transporters; rat; with: benzylpenicillin intravenous; decrease).
The Ki of `CO[C@H]1/C=C/O[C@@]2(C)Oc3c(C)c(O)c4c(O)c(c(/C=N/N5CCN(C)CC5)c(O)c4c3C2=O)NC(=O)/C(C)=C\C=C\[C@H](C)[C@H](O)[C@@H](C)[C@@H](O)[C@@H](C)[C@H](OC(C)=O)[C@@H]1C` is reported as 3290 nM (OATP1B; in vivo, unbound fraction corrected).
`C[C@@H](c1nc(-c2ccc(C#N)cc2)cs1)[C@](O)(Cn1cncn1)c1cc(F)ccc1F` has an IC50 of 5400 nM (CYP2C19; enzyme activity, inhibitor; with: S-mephenytoin 4'-hydroxylation).
`CC(O)C(C)n1ncn(-c2ccc(N3CCN(c4ccc(OCC5COC(Cn6cncn6)(c6ccc(Cl)cc6Cl)O5)cc4)CC3)cc2)c1=O` (centres unmarked) gave a Ki of 14.4 nM (CYP3A4; competitive inhibitor; unbound).
`C=CCN1CC[C@]23c4c5ccc(O)c4O[C@H]2C(=O)CC[C@@]3(O)[C@H]1C5` gave a Km of 40 to 60 µM (UGT2B7 (human); glucuronidation, substrate).
`O=C1/C(=C/c2ccccc2)Oc2ccccc21` gave an EC50 of greater than 30000 nM (Broad substrate specificity ATP-binding cassette transporter ABCG2 (ABCG2, Homo sapiens, UniProt Q9UNQ0); pheophorbide A accumulation, inhibitor; MDA-MB-231/R; with: pheophorbide A).
Under “metabolism rate increase”, `NC(=O)N1c2ccccc2C=Cc2ccccc21` is recorded as 2 to 6 fold (Cytochrome P450 3A4 (CYP3A4, Homo sapiens, UniProt P08684, S18F); human liver microsomes and hepatocytes; 5 µM, with: 100 µM pregnenolone sulfate; reference: without pregnenolone sulfate).
With `O=C(O)c1ccnc(N2CC(O)(c3ccc(OCc4c(-c5c(Cl)cccc5Cl)noc4C4CC4)cc3Cl)C2)c1` the IC50 was 2400 nM (CYP2C8; inhibitor).
For `O=C1CC(c2ccccc2)Oc2ccccc21` (centres unmarked), the turnover number was 0.25 (CYP2A6 wild type; substrate, refers to: 6-hydroxyflavanone formation).
`CC(=O)C[C@@H](c1ccccc1)c1c(O)c2ccccc2oc1=O` gave a Cmax ratio of 1 (CYP2C9; substrate; healthy subjects, fed; oral, 10 mg, with: simeprevir 150 mg; reference: with over without simeprevir).
`O=c1[nH]ncn1-c1ccc(N2CCN(c3ccc(OCC4COC(Cn5cncn5)(c5ccc(Cl)cc5Cl)O4)cc3)CC2)cc1` (centres unmarked) gave a Ki of 0.38 nM (CYP3A4; competitive inhibitor; unbound).
For `C[C@@H](O)CCCCn1c(=O)c2c(ncn2C)n(C)c1=O`, the Vmax was 0.003 nmol/min/mg (low Km non-CYP enzyme; substrate, refers to: pentoxifylline formation; human liver microsomes; biphasic kinetics).
Under “fraction of clearance”, `CC(O)c1cc(C(=O)N[C@@H](C)Cn2ccc(-c3ccc(C#N)c(Cl)c3)n2)[nH]n1` (some centres unmarked) is recorded as roughly 30% (UGT enzymes; glucuronidation).
`CNC(=O)c1c(C)oc2cc(Oc3ncnc4cc(OC)c(OC)cc34)ccc12`: “CYP contribution to metabolism” roughly 30% (cytochrome P450).
`Cc1c(C(=O)Nc2ccc(S(C)(=O)=O)cc2)cn(CCO)c1-c1ccccc1C(F)(F)F`: “CYP3A contribution to clearance” roughly 30% (CYP3A; urinary and faecal metabolite excretion).

A few entries again:
For `O=C1CC(c2ccccc2)Oc2ccccc21` (centres unmarked), the turnover number was 0.25 (CYP2A6 wild type; substrate, refers to: 6-hydroxyflavanone formation).
`CC(=O)C[C@@H](c1ccccc1)c1c(O)c2ccccc2oc1=O` gave a Cmax ratio of 1 (CYP2C9; substrate; healthy subjects, fed; oral, 10 mg, with: simeprevir 150 mg; reference: with over without simeprevir).
